Assay results from different studies.
Each line is one published result; not all experiments were run side by side. Several values in a cell are separate wells, animals, samples, runs or records. ± marks the error that the study gave.
UCHL1: Ubiquitin carboxyl-terminal hydrolase isozyme L1 (UCHL1, Homo sapiens, UniProt P09936)
UniProt P09936, sequence (whole entry, looked up): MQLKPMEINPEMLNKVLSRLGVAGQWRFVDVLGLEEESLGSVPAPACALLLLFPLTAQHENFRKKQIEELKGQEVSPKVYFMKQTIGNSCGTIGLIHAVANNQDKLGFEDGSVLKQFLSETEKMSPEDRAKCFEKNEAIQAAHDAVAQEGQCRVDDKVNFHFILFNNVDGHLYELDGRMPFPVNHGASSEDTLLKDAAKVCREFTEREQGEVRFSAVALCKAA
UniProt Q07794, sequence (whole entry, looked up): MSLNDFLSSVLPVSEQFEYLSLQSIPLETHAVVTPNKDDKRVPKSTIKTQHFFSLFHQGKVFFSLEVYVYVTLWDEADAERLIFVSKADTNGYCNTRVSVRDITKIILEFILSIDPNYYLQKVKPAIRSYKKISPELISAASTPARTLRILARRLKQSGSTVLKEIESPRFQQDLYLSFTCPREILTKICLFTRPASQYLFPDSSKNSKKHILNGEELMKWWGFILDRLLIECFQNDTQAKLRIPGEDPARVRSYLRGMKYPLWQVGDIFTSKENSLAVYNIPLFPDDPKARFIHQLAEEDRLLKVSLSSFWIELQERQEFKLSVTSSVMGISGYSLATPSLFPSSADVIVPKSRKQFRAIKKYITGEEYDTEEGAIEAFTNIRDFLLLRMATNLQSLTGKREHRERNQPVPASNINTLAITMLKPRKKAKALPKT

SMILES	tested on	assay	test system	setting	scale	endpoint	value
N=C(N)NCCNC(=O)C1(Nc2ccccc2)CCN(Cc2ccccc2)CC1	–	–	Sprague-Dawley rats (female), plasma	intravenous, 2.5 mg/kg	–	C0	9060 ± 1000 ng/mL
CNCCOC12CC3(C)CC(C)(CC(Cn4ncc(-c5ccc(N6CCc7cccc(C(=O)Nc8nc9ccccc9s8)c7C6)nc5C(=O)O)c4C)(C3)C1)C2	–	–	beagle dog, male, anaesthetised	intravenous bolus, 0.03 mg/kg, 60 min	relative to: baseline	mean arterial pressure change	-2%
COCc1cc(C(=O)Nc2cc([C@H]3CC[C@@H](OC(=O)NC(C)C)C3)[nH]n2)n(C)n1	–	–	OVCAR-3 xenograft, NOD/SCID gamma mice, plasma	oral, 15 twice daily, PK/PD study	–	unbound Cmax	335 nM
Cc1ccc(C(=O)Nc2ccnc(S(N)(=O)=O)c2)c(N2CCCC(F)(F)CC2)n1	–	–	rhesus monkey, plasma	intravenous, dose not given, 30 min	–	unbound plasma concentration	178 ± 11.5 nM
CNCc1ccc(-c2[nH]c3cc(F)cc4c3c2CCNC4=O)cc1	–	–	human patients	oral, 600 mg twice daily, grade 3	–	incidence of pulmonary embolism	0%
CC[C@H](C)[C@H](NC(=O)CN)C(=O)N[C@@H](CC(C)C)C(=O)N[C@@H](C)C(=O)N[C@@H](C)C(=O)N[C@H](C(=O)N[C@@H](CCCCN)C(=O)N[C@@H](C)C(=O)N[C@H](C(=O)N[C@@H](C)C(=O)N[C@@H](CCCCN)C(=O)N[C@@H](C)C(=O)N[C@@H](C)C(=O)NCC(N)=O)[C@@H](C)CC)[C@@H](C)CC	–	circular dichroism at 222 nm	30% TFE	100 µM	–	mean residue ellipticity	-12600 deg cm2/dmol
CC1CCCN(C(=O)C(NC(=O)C(C)Cl)c2cnn(C)c2)C1 (stereo not shown)	UCHL1	covalent, intact protein LC-MS	–	12.5 µM	–	labelling	10.5%
C=CC(=O)NC1CCN(c2ncc3ncnc(Nc4ccc(Oc5ccc6c(c5)ncn6C)c(C)c4)c3n2)CC1	–	–	tiny-TIM gastrointestinal model	240 mg, fasted state	–	maximum bioaccessibility	25.5 ± 2.9 % recovery
CC(F)(F)c1cc(F)ccc1-c1sc2cc(O)ccc2c1Oc1ccc(/C=C/C(=O)O)cc1	–	–	human, serum	oral, 200 mg once daily, cycle 1 day 28, fasted, median	–	Tlast	24 h
COc1cc(/C=N\NC(=O)c2ccc(Br)cc2)ccc1OC(=O)c1cccs1	–	–	sheep erythrocytes	1 h, pH 7.5	–	maximum haemolysis	2.4%
COc1cc2c3c(n(CCCN4CCOCC4)c(=O)c2cc1OC)-c1cc2c(cc1C3=O)OCO2	–	–	beagle dog, female, plasma	intravenous infusion, 646 mg/m^2, 1 h infusion	–	CL	15 L/h/m² and 21.8 L/h/m²
Sc1nnnn1-c1ccccc1	Histone acetyltransferase RTT109, with Vps75 (Saccharomyces cerevisiae, UniProt Q07794)	enzyme activity, inhibitor, HTS, CPM-based, dose response	–	–	–	IC50	> 125 µM
CNC(=O)c1cc(Oc2ccc(NC(=O)Nc3cc(C(C)(C)C)nn3-c3ccc4ncccc4c3)c(F)c2)ccn1	–	refers to: any AESI, worst grade ≥2	human patients	oral, dose not given, medium Cmax subgroup, cycles 1-2	–	patients with adverse events	20%
C[C@@]1(c2cc(NC(=O)c3ccc(C#N)cn3)ccc2F)C=CSC(N)=N1	–	–	elderly humans, both sexes, plasma	oral, 3 mg single dose	–	dose-normalised AUC(0-last)	77.1 ng·h/mL
CC(C)(C(=O)N1CCOc2c(C#N)cncc2C1)C(F)F	–	refers to: chest discomfort	human	oral, 10 mg once daily, 14 days, multiple ascending dose	–	subjects with adverse event	0%
Cc1noc2c1-c1ccccc1C(c1ccc(Cl)cc1)=N[C@H]2CC(N)=O	–	–	Crl:CD1(ICR) mice, female, brain	intravenous, 5 µmol/kg	–	AUC(0-last)	4.16 µM·h
CCOc1ccc2nc(NC(=O)c3ccc4ncsc4c3)sc2c1	–	–	sheep erythrocytes	1 h, pH 7.5	–	maximum haemolysis	26.9%
COc1cc2[nH]c(C)c(-c3ccc(S(=O)(=O)N(C)C)cc3)c(=O)c2cc1Cl	–	–	PAMPA	pH 7.4	–	Papp	119 ×10⁻⁶ cm/s
CCc1cc(/C(C)=N/OCc2ccc(C3CCCCC3)c(C(F)(F)F)c2)ccc1CN1CC(C(=O)O)C1	–	–	–	–	–	pKa (basic)	8.5
N#Cc1ccc2c(c1)[C@H]1CCCN(C(=O)c3ccc4[nH]cnc4c3)[C@H]1C2	–	–	human, female	160 mg, day 15	–	androstenedione level	10.5 nmol/L
C[C@@H]1COCCN1c1cc(C2([S@](C)(=N)=O)CC2)nc(-c2cc[nH]c3nccc2-3)n1	–	–	Japanese advanced solid tumour patients	oral, 160 mg twice daily, CTCAE grade ≥3	–	Anemia incidence	16.7%
CC(C)n1nc(-c2ccc3oc(N)nc3c2)c2c(N)ncnc21	–	–	human, plasma	oral, 20 mg once weekly, cycle 1 day 1	–	AUC(0-last)	1560 ng·h/mL
CN1C(=O)[C@@H](NC(=O)c2nnc(Cc3ccccc3)[nH]2)COc2cccnc21	–	phase I single ascending dose	human, male and female	oral, 400 mg, fasted	–	participants with any serious TEAE	0%
COc1ccc(C[C@@H](C)[C@@H](C)Cc2ccc(OC)c(OC)c2)cc1OC	–	–	beagle dog male, plasma	oral, 300 mg/kg/day, day 28	–	Cmax	1850 ± 444 ng/mL
CO[C@H]1C[C@@H]2CC[C@@H](C)[C@@](O)(O2)C(=O)C(=O)N2CCCC[C@H]2C(=O)O[C@H]([C@H](C)C[C@@H]2CC[C@@H](O)[C@H](OC)C2)CC(=O)[C@H](C)/C=C(\C)[C@@H](O)[C@@H](OC)C(=O)[C@H](C)C[C@H](C)/C=C/C=C/C=C/1C	–	–	healthy adult horses	intravenous, 0.06 mg/kg, 6 h	–	rectal temperature	37.5 ± 0.1 °C

SMILES	tested on	assay	test system	setting	scale	endpoint	value
COc1cccc(-c2cccc(Nc3nccc(NC4CCCCC4)n3)c2)c1	–	–	MDCKII-WT cells	10 µM, pH 7.4	–	Papp (B to A)	0.197 ± 0.134 ×10⁻⁶ cm/s
CCO[C@H]1CCN(Cc2c(OC)cc(C)c3[nH]ccc23)[C@H](c2ccc(C(=O)O)cc2)C1	–	–	human severe hepatic impairment, plasma	oral, 200 mg single dose, median	–	total Cmax	3400 ng/mL
Cc1cc(-c2nccc3c2ccn3CC(=O)Nc2ccc(-c3cnccn3)cn2)ccn1	–	–	human	MAD part, 20 mg once daily	–	subjects with eye disorders TEAEs	0%
CC(C)(C)c1ccc(C(O)CCCN2CCC(C(O)(c3ccccc3)c3ccccc3)CC2)cc1 (stereo not shown)	–	–	male Hartley guinea pigs, anaesthetized	intravenous, 3 mg/kg over 10 min, after infusion	–	mean blood pressure	37 ± 0.2 mmHg
CCN1/C(=C/C(C)=O)Sc2ccc(F)cc21	–	–	cynomolgus monkey	oral, 30 mg/kg, 1 h post-dose	–	QTc interval (Bazett)	328 ± 18 ms
O=C(CCCN1CC=C(n2c(=O)[nH]c3ccccc32)CC1)c1ccc(F)cc1	–	–	male Hartley guinea pigs, anaesthetized	intravenous, 0.03 mg/kg group, baseline before infusion	–	mean blood pressure	34 ± 0.3 mmHg
Cc1ccc([C@@H]2O[C@H](CO)[C@@H](O)[C@H](O)[C@H]2O)cc1Cc1ccc(-c2ccc(F)cc2)s1	–	–	Japanese type 2 diabetes patients	200 mg, day 15, 24 h urine collection	relative to: baseline	urinary magnesium excretion change	5.28 mg
Cc1nc2cccc(OCC(C)(C)C(=O)NC(C)C)c2c(N)c1C(=O)O	–	–	male Swiss albino CD-1 mouse, bone marrow	oral, 500 mg/kg, 48 h	–	micronucleated PCE per 14000 PCE	8
OCc1nc2ccc(NCc3ccc(C(F)(F)F)cc3)cc2[nH]1	–	–	Balb/c mice, male, plasma	intravenous, 1 mg/kg	–	C0	821 ± 126 ng/mL
CN1CCc2c(sc3c2c(=O)n(-c2ccccc2)c2nnc(SCc4ccccc4)n32)C1	Trypanosoma cruzi	reporter translation, Renilla luciferase mRNA translation	cell-free extract	40 µM	relative to: DMSO	inhibition	1.6%
COc1cc2[nH]c(C)c(-c3ccc(C(F)(F)F)cc3F)c(=O)c2cc1Cl	–	–	PAMPA	pH 7.4	–	Papp	688 ×10⁻⁶ cm/s
O=C(Nc1nc2cccc(-c3ccc(CN4CCS(=O)(=O)CC4)cc3)n2n1)C1CC1	–	refers to: arthralgia	human rheumatoid arthritis patients	oral, 30 mg once daily, 4 weeks, regardless of relatedness	–	treatment-emergent adverse events	0%
C=CCN1CC(=O)N2[C@@H](Cc3ccc(O)cc3F)C(=O)N(Cc3cccc(N4CC(N5CCN(CC)CC5)C4)n3)C[C@@H]2N1C(=O)NCc1ccccc1	–	refers to: Diarrhea	advanced solid tumour patients	oral, 100 mg twice daily, expansion part, grade ≥3	–	treatment-related adverse events	0%
CC(C)NC(=O)C(C#N)=Cc1cc(F)ccc1F	UCHL1	covalent, intact protein LC-MS	–	12.5 µM	–	labelling	22.4%
Cn1c(C(F)(F)F)cc(=O)n(-c2cc(Oc3cccnc3OCC(=O)O)c(Cl)cc2F)c1=O	–	–	beagle dog, male, plasma	oral capsule, 100 mg/kg/day epyrifenacil, day 1, 90-day study	–	Cmax	3120 ng/mL
C[C@@H](O)CCOC(=O)C[C@@H](C)O	–	–	human	oral drink, dose not given, 120 min post dose, mean	–	mean arterial pressure	79 mmHg
O=C1Cc2cc(CCN3CCN(c4nsc5ccccc45)CC3)c(Cl)cc2N1	–	–	male Hartley guinea pigs, anaesthetized	intravenous, 1 mg/kg over 10 min, after infusion	–	mean blood pressure	23 ± 0.3 mmHg
Cc1cc(C(=O)NC(C)(C)COc2cccc3c2C(N)=NS(=O)(=O)N3)cc(C)n1	–	LC-MS metabolite profiling	Sprague-Dawley rat, both sexes, plasma	oral, 100 mg/kg of parent drug, 2 (unit not given)	higher = more metabolite	plasma peak area	536000 a.u.
C[Si](C)(C)O[Si](C)(C)O[Si](C)(C)C	–	–	–	–	–	intercept A, log KAW vs 1/T	9.99
CN(CCC#N)C1CCN(C(=O)Cn2cc(NC(=O)c3cnn4cccnc34)c(-c3cc(Cl)ccc3OC(F)F)n2)CC1	–	gamma scintigraphy	human, right lung	inhalation, dose not given	–	outer to inner ratio	1.36
COc1cc2[nH]c(C)c(-c3cc4ccccc4s3)c(=O)c2cc1Cl	–	–	PAMPA	pH 7.4	–	Papp	241 ×10⁻⁶ cm/s
Cc1ccc(Sc2ccccc2N2CCNCC2)c(C)c1	–	–	healthy adult men	oral, 40 mg single dose, treatment-emergent adverse events	–	vomiting incidence	33.3%
CNC(=O)c1ccc(-c2cnc3ncc(Cc4ccc5ncccc5c4)n3n2)cc1F	–	refers to: Constipation, all grades	cancer patients	oral, 600 mg twice daily, expansion cohort, any causality	–	patients with adverse event	18%
Cc1cc(-c2nnc(N)nc2-c2ccc(F)cc2)cc(Cl)n1	–	refers to: Nausea	human phase Ia/Ib NSCLC, post-immunotherapy	oral, 100 mg once daily	–	patients with treatment-related adverse events	52.9%
